Results pooled from the literature.
Protocols differ between the studies behind these lines.
Technique: steady-state kinetics
B1: enzyme (Arabidopsis thaliana, UniProt Q9FJN8); chain TSGGGYGDPSQKIDYVFKVVLIGDSAVGKSQILARYARDEFSLDSKATIGVEFQTRTLVIDHKSVKAQIWDTAGQERYRAVTSAYYRGAVGAMLVYDITRRQTFDHIPRWLEELRAHADKNIVIILIGNKSDLVDQRAIPTEDAKEFAEKEGLFFLETSAFNATNVESAFSTVLTEIFNIVNKKSLAASEDQENGNPGSLAGKKIDIVPGPGQVIPNKSNMCCNS
B2: Por W677A (Rattus norvegicus, UniProt P00388); chain GDSHEDTSATMPEAVAEEVSLFSTTDMVLFSLIVGVLTYWFIFRKKKEEIPEFSKIQTTAPPVKESSFVEKMKKTGRNIIVFYGSQTGTAEEFANRLSKDAHRYGMRGMSADPEEYDLADLSSLPEIDKSLVVFCMATYGEGDPTDNAQDFYDWLQETDVDLTGVKFAVFGLGNKTYEHFNAMGKYVDQRLEQLGAQRIFELGLGDDDGNLEEDFITWREQFWPAVCEFFGVEATGEESSIRQYELVVHEDMDVAKVYTGEMGRLKSYENQKPPFDAKNPFLAAVTANRKLNQGTERHLMHLELDISDSKIRYESGDHVAVYPANDSALVNQIGEILGADLDVIMSLNNLDEESNKKHPFPCPTTYRTALTYYLDITNPPRTNVLYELAQYASEPSEQEHLHKMASSSGEGKELYLSWVVEARRHILAILQDYPSLRPPIDHLCELLPRLQARYYSIASSSKVHPNSVHICAVAVEYEAKSGRVNKGVATSWLRAKEPAGENGGRALVPMFVRKSQFRLPFKSTTPVIMVGPGTGIAPFMGFIQERAWLREQGKEVGETLLYYGCRRSDEDYLYREELARFHKDGALTQLNVAFSREQAHKVYVQHLLKRDREHLWKLIHEGGAHIYVCGDARNMAKDVQNTFYDIVAEFGPMEHTQAVDYVKKLMTKGRYSLDVAS
B3: enzyme S252E/S281E/S285E/S287E (Schizosaccharomyces pombe, UniProt P78804); chain MSTPYEPEFQQAYKEIVGSIESSKLFEVHPELKRVLPIISIPERVLEFRVTWEDDKGNCRVNTGYRVQFNSALGPYKGGLRFHPSVNLSILKFLGFEQIFKNALTGLPMGGGKGGSDFDPKGKSDNEIRRFSQAFMRQLFRYIGPQTDVPAGDIGVTGFVVMHMFGEYKRLRNEYSGVVTGKHMLTGGSNIRPEATGYGVVYYVKHMIEHRTKGAETLKGKRVAISGSGNVAQYAALKCIQEGAIVKSISDEKGVLIAKTAEGLVPEEIHEIMALKEKRAEIADEAELCKKHHYIAGARPWTNVGEIDIALPCATQNEVSGEEAAALIKQGCRYVAEGSNMGSSAEAVEVFEKSRASGEGCWLAPGKAANAGGVAVSGLEMAQNAQFSTWTHAEVDAKLAGIMQNIFEQSTDVASKYCDSGSNNIPSLVDGANIAGFLKVATAMQAVGDWW
B4: SLCO1B1 (Homo sapiens, UniProt Q9Y6L6); chain MDQNQHLNKTAEAQPSENKKTRYCNGLKMFLAALSLSFIAKTLGAIIMKSSIIHIERRFEISSSLVGFIDGSFEIGNLLVIVFVSYFGSKLHRPKLIGIGCFIMGIGGVLTALPHFFMGYYRYSKETNINSSENSTSTLSTCLINQILSLNRASPEIVGKGCLKESGSYMWIYVFMGNMLRGIGETPIVPLGLSYIDDFAKEGHSSLYLGILNAIAMIGPIIGFTLGSLFSKMYVDIGYVDLSTIRITPTDSRWVGAWWLNFLVSGLFSIISSIPFFFLPQTPNKPQKERKASLSLHVLETNDEKDQTANLTNQGKNITKNVTGFFQSFKSILTNPLYVMFVLLTLLQVSSYIGAFTYVFKYVEQQYGQPSSKANILLGVITIPIFASGMFLGGYIIKKFKLNTVGIAKFSCFTAVMSLSFYLLYFFILCENKSVAGLTMTYDGNNPVTSHRDVPLSYCNSDCNCDESQWEPVCGNNGITYISPCLAGCKSSSGNKKPIVFYNCSCLEVTGLQNRNYSAHLGECPRDDACTRKFYFFVAIQVLNLFFSALGGTSHVMLIVKIVQPELKSLALGFHSMVIRALGGILAPIYFGALIDTTCIKWSTNNCGTRGSCRTYNSTSFSRVYLGLSSMLRVSSLVLYIILIYAMKKKYQEKDINASENGSVMDEANLESLNKNKHFVPSAGADSETHC
B5: enzyme (Talaromyces verruculosus, UniProt A0A348FUE1); chain MSPMDLQESAAALVRQLGERVEDRRGFGFMSPAIYDTAWVSMISKTIDDQKTWLFAECFQYILSHQLEDGGWAMYASEIDAILNTSASLLSLKRHLSNPYQITSITQEDLSARINRAQNALQKLLNEWNVDSTLHVGFEILVPALLRYLEDEGIAFAFSGRERLLEIEKQKLSKFKAQYLYLPIKVTALHSLEAFIGAIEFDKVSHHKVSGAFMASPSSTAAYMMHATQWDDECEDYLRHVIAHASGKGSGGVPSAFPSTIFESVWPLSTLLKVGYDLNSAPFIEKIRSYLHDAYIAEKGILGFTPFVGADADDTATTILVLNLLNQPVSVDAMLKEFEEEHHFKTYSQERNPSFSANCNVLLALLYSQEPSLYSAQIEKAIRFLYKQFTDSEMDVRDKWNLSPYYSWMLMTQAITRLTTLQKTSKLSTLRDDSISKGLISLLFRIASTVVKDQKPGGSWGTRASKEETAYAVLILTYAFYLDEVTESLRHDIKIAIENGCSFLSERTMQSDSEWLWVEKVTYKSEVLSEAYILAALKRAADLPDENAEAAPVINGISTNGFEHTDRINGKLKVNGTNGTNGSHETNGINGTHEIEQINGVNGTNGHSDVPHDTNGWVEEPTAINETNGHYVNGTNHETPLTNGISNGDSVSVHTDHSDSYYQRSDWTADEEQILLGPFDYLESLPGKNMRSQLIQSFNTWLKVPTESLDVIIKVISMLHTASLLIDDIQDQSILRRGQPVAHSIFGTAQAMNSGNYVYFLALREVQKLQNPKAISIYVDSLIDLHRGQGMELFWRDSLMCPTEEQYLDMVANKTGGLFCLAIQLMQAEATIQVDFIPLVRLLGIIFQICDDYLNLKSTAYTDNKGLCEDLTEGKFSFPIIHSIRSNPGNRQLINILKQKPREDDIKRYALSYMESTNSFEYTRGVVRKLKTEAIDTIQGLEKHGLEENIGIRKILARMSLEL
B6: GapA (Pseudomonas putida, UniProt Q88P44); chain MTLRIAINGFGRIGRNVLRALYTQGYRQDLQVVAINDLGDSTMNAHLLKYDSVHGTFDATVEADHESLTVNGDRIAVSAIRNPAELPWKAEAIDVVFECTGLFTDRAKAAAHLAAGAGKVIVSAPAKGADATVVYGVNHDILRASHQIISNASCTTNCLAPIAQVLHREFGIEQGLMTTIHAYTNDQVLTDVYHSDPYRARSATQSMIPSKTGAAEAVGLVLPELAGKLTGMAVRVPVINVSLVDLTVNLKREATAEQVNQLFLEASKHSKVLGYNALPLVSCDFNHNPLSSIFDANHTRANGRMLKVLAWYDNEWGFSNRMLDNCLALHRAG
B7: enzyme L71Q/Y136L (Bradyrhizobium diazoefficiens, UniProt Q45222); chain MIQTERAVQQVLEWGRSLTGFADEHAVEAVRGGQYILQRIHPSLRGTSARTGRDPQDETLIVTFYRELALQFWLDDCNDLGLISPEQLAAVEQALGQGVPCALPGFEGCAVLRASLATLAYDRRDYAQLLDDTRCLSAALRAGHAQAVAAERWSYAEYLHNGIDSIAYANVFCCLSLLWGLDMATLRARPAFRQVLRLISAIGRLQNDLHGCDKDRSAGEADNAVILLLQRYPAMPVVEFLNDELAGHTRMLHRVMAEERFPAPWGPLIEAMAAIRVQYYRTSTSRYRSDAVRGGQRAPA
B8: PYCR2 R119C (Homo sapiens, UniProt Q96C36); chain MSVGFIGAGQLAYALARGFTAAGILSAHKIIASSPEMNLPTVSALRKMGVNLTRSNKETVKHSDVLFLAVKPHIIPFILDEIGADVQARHIVVSCAAGVTISSVEKKLMAFQPAPKVICCMTNTPVVVQEGATVYATGTHALVEDGQLLEQLMSSVGFCTEVEEDLIDAVTGLSGSGPAYAFMALDALADGGVKMGLPRRLAIQLGAQALLGAAKMLLDSEQHPCQLKDNVCSPGGATIHALHFLESGGFRSLLINAVEASCIRTRELQSMADQEKISPAALKKTLLDRVKLESPTVSTLTPSSPGKLLTRSLALGGKKD
B9: enzyme S253A (Arabidopsis thaliana, UniProt Q9LJK1); chain EKCQEWLERVDSVTYSRDFTKDPIFISGSNKDFKSCSVDCVMGFTSDKKPDAAFGLSHQPGTLSIIRSMESAQYYQENNLAQARRKGYDIVMTTSLSSDVPVGYFSWAEYDIMAPVQPKTEKALAAAFISNCAARNFRLQALEALMKTNVKIDSYGGCHRNRDGAVEKVEALKHYKFSLAFENTNEEDYVTEKFFQSLVAGSVPVVVGAPNIEEFAPSPDSFLHIKQMDDVKAVAKKMKYLADNPDAYNQTLRWKHEGPSDSFKALIDMAAVHSSCRLCIFVATRIREQEEKSPEFKRRPCKCTRGSETVYHLYVRERGRFDMESIFLKDGNLTLEALESAVLAKFMSLRYEPIWKKERPASLRGDGKLRVHGIYPIGLTQRQALYNFKFEGNSSLSTHIQRNPCPKFEVVFV

`CYP2C8 (Homo sapiens, UniProt P10632)` has a Km of 9.68 µM (CC(C)=CCc1cc2c(cc1O)O[C@H](c1ccc(O)cc1)CC2=O; pH 7.4, 37 °C).
`HNL E79H/H103V/K236M/T11G (Hevea brasiliensis)` gave a Km of 650 µM (CC(=O)Oc1ccc([N+](=O)[O-])cc1; pH 7.2, 22 °C).
With `enzyme (Oryza sativa, UniProt Q6ZGQ4)` the Km was 56000 µM (O=[N+]([O-])c1ccc(O[C@@H]2O[C@@H](CO)[C@H](O)[C@H]2O)cc1; pH 4, 40 °C, apparent).
`enzyme (Acinetobacter baumannii, UniProt A0A5P1UDB1)` has a Km of 30.7 µM (O=C(O)c1cccc(Cl)c1O; pH 7.5, 37 °C, apparent).
The Km of `enzyme (Bacteroides ovatus, UniProt A0AAN3A6N4)` is reported as 78 µM (O=[N+]([O-])c1ccc(O[C@H]2O[C@H](CO)[C@@H](O)[C@H](O)[C@H]2O)cc1; pH 6.6).
`B1 (enzyme)` has a Km of 6240 µM (Nc1nc2c(ncn2[C@@H]2O[C@H](COP(=O)(O)OP(=O)(O)OP(=O)(O)O)[C@@H](O)[C@H]2O)c(=O)[nH]1; pH 7.5, 30 °C).
`B2 (Por W677A)` has a Km of 83.5 µM (NC(=O)C1=CN([C@@H]2O[C@H](COP(=O)(O)OP(=O)(O)OC[C@H]3O[C@@H](n4cnc5c(N)ncnc54)[C@H](O)[C@@H]3O)[C@@H](O)[C@H]2O)C=CC1; with: cytochrome c).
With `acsA (Pseudomonas chlororaphis, UniProt Q5CD72)` the Km was 9000 µM (CC(C)CC(=O)O; pH 7).
`enzyme (Ehrlichia chaffeensis, UniProt Q2GG44)` has a Km of 400 µM (Nc1ncnc2c1ncn2[C@@H]1O[C@H](COP(=O)(O)O)[C@@H](O)[C@H]1O; pH 6.8, 37 °C, with: Mg2+ 1 mM).
`B3 (enzyme S252E/S281E/S285E/S287E)` has a Km of 140 µM (NC(=O)C1=CN([C@@H]2O[C@H](COP(=O)(O)OP(=O)(O)OC[C@H]3O[C@@H](n4cnc5c(N)ncnc54)[C@H](OP(=O)(O)O)[C@@H]3O)[C@@H](O)[C@H]2O)C=CC1; pH 7, 30 °C, apparent).
The Km of `enzyme (UniProt P0DY30)` is reported as 1090 µM (CC(=O)N[C@H]1[C@H](Oc2ccc([N+](=O)[O-])cc2)O[C@H](CO)[C@@H](O)[C@@H]1O[C@@H]1O[C@H](CO)[C@H](O)[C@H](O)[C@H]1O; pH 6, 50 °C).
`B4 (SLCO1B1)` has a Km of 0.17 µM (C=C[C@@H]1C[C@]1(NC(=O)[C@@H]1C[C@@H]2CN1C(=O)[C@H](C(C)(C)C)NC(=O)O[C@@H]1C[C@H]1CCCCCc1nc3ccc(OC)cc3nc1O2)C(=O)NS(=O)(=O)C1CC1; pH 7.4, 37 °C).
With `enzyme (Pseudomonas syringae, UniProt Q87XD5)` the Km was 4900 µM (NC(N)=O; with: MgATP).
With `rCR (Lodderomyces parapsilosis, UniProt A1X808)` the Km was 1040 µM (O=C(CO)c1ccccc1; pH 7, 30 °C).
For `enzyme F30A (Homo sapiens, UniProt Q08623)`, the Km was 11 µM (O=c1[nH]cc([C@@H]2O[C@H](COP(=O)(O)O)[C@@H](O)[C@H]2O)c(=O)[nH]1; pH 7, 25 °C).
`B5 (enzyme)` gave a Km of 190 µM (CC(C)=CCOP(=O)(O)OP(=O)(O)O; pH 7.5, apparent, with: 150 µM IPP).
With `B6 (GapA)` the Km was 440 µM (O=C[C@H](O)COP(=O)(O)O; with: NAD+).
`gdh N192S/N97F (Bacillus subtilis)` has a Km of 220 µM (NC(=O)c1ccc[n+]([C@@H]2O[C@H](COP(=O)(O)OP(=O)(O)OC[C@H]3O[C@@H](n4cnc5c(N)ncnc54)[C@H](O)[C@@H]3O)[C@@H](O)[C@H]2O)c1; pH 7, 55 °C).
For `B7 (enzyme L71Q/Y136L)`, the Km was 8.96 µM (C=C1CC[C@@H]2C(C)(C)CCC[C@@]2(C)[C@@H]1CC/C(C)=C/COP(=O)(O)OP(=O)(O)O).
The Km of `B8 (PYCR2 R119C)` is reported as 537 µM (NC(=O)C1=CN([C@@H]2O[C@H](COP(=O)(O)OP(=O)(O)OC[C@H]3O[C@@H](n4cnc5c(N)ncnc54)[C@H](OP(=O)(O)O)[C@@H]3O)[C@@H](O)[C@H]2O)C=CC1; pH 7.5, 37 °C, apparent, cofactor varied, with: DL-P5C 5000 µM).
The Km of `B9 (enzyme S253A)` is reported as 100 µM (C[C@@H]1O[C@H](OP(=O)(O)OP(=O)(O)OC[C@H]2O[C@@H](n3cnc4c(=O)[nH]c(N)nc43)[C@H](O)[C@@H]2O)[C@@H](O)[C@H](O)[C@@H]1O; pH 6.5, 30 °C).

Some of these lines once more:
With `rCR (Lodderomyces parapsilosis, UniProt A1X808)` the Km was 1040 µM (O=C(CO)c1ccccc1; pH 7, 30 °C).
`HNL E79H/H103V/K236M/T11G (Hevea brasiliensis)` gave a Km of 650 µM (CC(=O)Oc1ccc([N+](=O)[O-])cc1; pH 7.2, 22 °C).
